Measured values gathered from unrelated publications.
Lines come from different studies, so protocols differ.

Structure (SMILES)	organism	test	test system	conditions	MIC
Oc1c(Br)cc(Br)c2nc3cc(Cl)ccc3nc12	Staphylococcus epidermidis	microbial growth, broth dilution	12228		0.1 µM
CC(C)=CCc1cc([C@@H]2CC(=O)c3ccc(O)c(CC=C(C)C)c3O2)c(O)c(CC=C(C)C)c1O	Shigella flexneri		DMST 4423		inactive
C[C@@H](c1ccn(Cc2cc(F)ccc2F)n1)[C@](O)(Cn1cnnn1)c1ccc(F)cc1F	Aspergillus fumigatus	growth, broth microdilution	7544	48 h, 35 °C, ≥50% inhibition	> 64 mg/L
CC(C)=CCc1cc2c(cc1O)OCc1c-2oc2c(CC=C(C)C)c(O)ccc12	Shigella flexneri		DMST 4423		inactive
Oc1c(Cl)cc(Cl)c2cccnc12	Serratia marcescens	microbial growth, agar dilution	ATCC8100		37.4 µM
C[C@@H](c1ccn(Cc2ccc(OC(F)(F)F)cc2)n1)[C@](O)(Cn1cnnn1)c1ccc(F)cc1F	Aspergillus fumigatus	growth, broth microdilution	7544	48 h, 35 °C, ≥50% inhibition	> 64 mg/L
CC(C)=CCc1cc2c(cc1O)OC[C@H]1c3ccc(O)c(CC=C(C)C)c3O[C@@H]21	Shigella flexneri		DMST 4423		inactive
CC[C@@H](C)[C@@H](NC(=O)[C@@H](C)NC(=O)[C@@H](CCCCN)NC(=O)[C@@H](CC(C)C)NC(=O)[C@@H](C)NC(=O)[C@H](NC(=O)[C@@H](Cc1c[nH]cn1)NC(=O)[C@@H](CC(C)C)NC(=O)[C@H](NC(=O)[C@H](NC(=O)[C@@H](CCCCN)NC(=O)[C@H](NC(=O)[C@@H](C)NC(=O)[C@@H](CO)NC(=O)[C@@H](CCCCN)NC(=O)[C@@H](Cc1ccccc1)NC(=O)[C@H](NC(=O)[C@@H](CCCCN)NC(=O)[C@@H](CC(C)C)NC(=O)[C@@H](Cc1ccccc1)NC(=O)[C@@H](CO)NC(=O)[C@@H](CCCCN)NC(=O)[C@@H](Cc1c[nH]c2ccccc12)NC(=O)[C@@H](CCCCN)NC(C)=O)[C@H](C)O)C(C)C)[C@H](C)O)C(C)C)[C@H](C)O)C(=O)N[C@H](CO)C(=O)N[C@H](CO)C(N)=O	Acinetobacter baumannii		759, Mueller-Hinton broth	24 h, 37 °C	0.7 µM
CCCCCCCCCC1CC2CCCC3CC(CCCCCCCCC)NC(=N1)N23 (stereo not drawn)	Aspergillus fumigatus	fungal growth	ATCC 204305		23.2 µM
COc1ccc2c(c1CC=C(C)C)O[C@H]1c3cc4c(cc3OC[C@@]21O)OC(C)(C)C=C4	Shigella flexneri		DMST 4423		inactive
C[C@@H](c1ccn(Cc2ccc(F)cc2F)n1)[C@](O)(Cn1cnnn1)c1ccc(F)cc1F	Aspergillus fumigatus	growth, broth microdilution	7544	48 h, 35 °C, ≥50% inhibition	32 mg/L
CC[C@@H](C)[C@@H](NC(=O)[C@@H](C)NC(=O)[C@@H](CCCCN)NC(=O)[C@@H](CC(C)C)NC(=O)[C@@H](CC(C)C)NC(=O)[C@H](NC(=O)[C@@H](CCCCN)NC(=O)[C@@H](CC(C)C)NC(=O)[C@@H](CCCCN)NC(=O)[C@@H](CCCCN)NC(=O)[C@@H](CCCCN)NC(=O)[C@@H](CCCCN)NC(=O)[C@@H](C)NC(=O)[C@@H](CCCCN)NC(=O)[C@@H](CO)NC(=O)[C@@H](Cc1ccccc1)NC(=O)[C@H](NC(=O)[C@@H](CCCCN)NC(=O)[C@@H](CC(C)C)NC(=O)[C@@H](Cc1ccccc1)NC(=O)[C@@H](CO)NC(=O)[C@@H](CCCCN)NC(=O)[C@@H](Cc1c[nH]c2ccccc12)NC(=O)[C@@H](CCCCN)NC(C)=O)[C@H](C)O)[C@H](C)O)C(=O)N[C@H](CO)C(=O)N[C@H](CCCCN)C(N)=O	Acinetobacter baumannii		649, Mueller-Hinton broth	24 h, 37 °C	0.6 µM
Oc1c(Br)cc(Br)c2nc3cc(Cc4ccccc4)ccc3nc12	Staphylococcus epidermidis	broth microdilution	MRSE 35984	single representative determination	0.1 µM
N#Cc1ccc2cccc(O)c2n1	Serratia marcescens	microbial growth, agar dilution	ATCC8100		> 1500 µM
C[C@@H](c1ccn(Cc2ccc(Cl)cc2)n1)[C@](O)(Cn1cnnn1)c1ccc(F)cc1F	Aspergillus fumigatus	growth, broth microdilution	7544	48 h, 35 °C, ≥50% inhibition	64 mg/L
CC[C@@H](C)[C@@H](NC(=O)[C@@H](C)NC(=O)[C@@H](CCCCN)NC(=O)[C@@H](CC(C)C)NC(=O)[C@@H](C)NC(=O)[C@H](NC(=O)[C@@H](CCCCN)NC(=O)[C@@H](CC(C)C)NC(=O)[C@H](NC(=O)[C@@H](CCCCN)NC(=O)[C@@H](CCCCN)NC(=O)[C@@H](CCCCN)NC(=O)[C@@H](C)NC(=O)[C@@H](CCCCN)NC(=O)[C@@H](CO)NC(=O)[C@@H](Cc1ccccc1)NC(=O)[C@H](NC(=O)[C@@H](CCCCN)NC(=O)[C@@H](CC(C)C)NC(=O)[C@@H](Cc1ccccc1)NC(=O)[C@@H](CO)NC(=O)[C@@H](CCCCN)NC(=O)[C@@H](Cc1c[nH]c2ccccc12)NC(=O)[C@@H](CCCCN)NC(C)=O)[C@H](C)O)C(C)C)[C@H](C)O)C(=O)N[C@H](CO)C(=O)N[C@H](CCCCN)C(N)=O	Acinetobacter baumannii		1012, Mueller-Hinton broth	24 h, 37 °C	1.3 µM
C[C@@H](c1ccn(Cc2ccc(F)c(C(F)(F)F)c2)n1)[C@](O)(Cn1cnnn1)c1ccc(F)cc1F	Aspergillus fumigatus	growth, broth microdilution	7544	48 h, 35 °C, ≥50% inhibition	> 64 mg/L
CC[C@@H](C)[C@@H](NC(=O)[C@@H](C)N)C(=O)N[C@H](CCCCN)C(=O)N[C@@H](C(=O)N[C@H](CCCNC(=N)N)C(=O)N[C@H](CCCCN)C(=O)N[C@H](CC(C)C)C(=O)N[C@H](Cc1ccccc1)C(=O)N[C@H](CCCCN)C(=O)N[C@H](CCCCN)C(=O)N[C@H](CC(C)C)C(=O)N[C@H](CC(C)C)C(=O)N[C@H](CCCNC(=N)N)C(N)=O)[C@H](C)CC	Escherichia coli	broth microdilution checkerboard	ATCC 25922, LB medium	added: ampicillin	3.12 mg/L
C[C@@H](c1ccn(Cc2c(F)ccc(F)c2F)n1)[C@](O)(Cn1cnnn1)c1ccc(F)cc1F	Aspergillus fumigatus	growth, broth microdilution	7544	48 h, 35 °C, ≥50% inhibition	> 64 mg/L
Oc1c(Br)cc(Br)c2nc3cc(SC(F)(F)F)ccc3nc12	Staphylococcus epidermidis	broth microdilution	MRSE 35984	single representative determination	0.1 µM
CC(C)c1ccc(Cn2ccc([C@H](C)[C@](O)(Cn3cnnn3)c3ccc(F)cc3F)n2)cc1	Candida parapsilosis	CLSI broth microdilution	22019	24 h	< 0.008 mg/L
CC[C@@H](C)[C@@H](NC(=O)[C@@H](C)NC(=O)[C@@H](CCCCN)NC(=O)[C@@H](CC(C)C)NC(=O)[C@@H](CC(C)C)NC(=O)[C@H](NC(=O)[C@@H](CCCCN)NC(=O)[C@@H](CC(C)C)NC(=O)[C@@H](C)NC(=O)[C@@H](CCCCN)NC(=O)[C@@H](CCCCN)NC(=O)[C@@H](CCCCN)NC(=O)[C@@H](C)NC(=O)[C@@H](CCCCN)NC(=O)[C@@H](CO)NC(=O)[C@@H](Cc1ccccc1)NC(=O)[C@H](NC(=O)[C@@H](CCCCN)NC(=O)[C@@H](CC(C)C)NC(=O)[C@@H](Cc1ccccc1)NC(=O)[C@@H](CO)NC(=O)[C@@H](CCCCN)NC(=O)[C@@H](Cc1c[nH]c2ccccc12)NC(=O)[C@@H](CCCCN)NC(C)=O)[C@H](C)O)[C@H](C)O)C(=O)N[C@H](CO)C(=O)N[C@H](CCCCN)C(N)=O	Acinetobacter baumannii		884, Mueller-Hinton broth	24 h, 37 °C	0.7 µM
Oc1c(Br)cc(Br)c2nc3c(C(F)(F)F)cc(C(F)(F)F)cc3nc12	Staphylococcus epidermidis	broth microdilution	MRSE 35984		0.08 µM
O=[N+]([O-])c1ccc2c(c1)C=[N+]1N3C(=[O+][Cu-2]1([Cl])[O]2)c1ccccc1NC3c1cc([N+](=O)[O-])ccc1O (stereo not drawn)	Mycolicibacterium smegmatis	broth microdilution	ATCC 700084	3 days	64 mg/L

Some of these lines once more:
Structure (SMILES)	organism	test	test system	conditions	MIC
CC[C@@H](C)[C@@H](NC(=O)[C@@H](C)NC(=O)[C@@H](CCCCN)NC(=O)[C@@H](CC(C)C)NC(=O)[C@@H](C)NC(=O)[C@H](NC(=O)[C@@H](Cc1c[nH]cn1)NC(=O)[C@@H](CC(C)C)NC(=O)[C@H](NC(=O)[C@H](NC(=O)[C@@H](CCCCN)NC(=O)[C@H](NC(=O)[C@@H](C)NC(=O)[C@@H](CO)NC(=O)[C@@H](CCCCN)NC(=O)[C@@H](Cc1ccccc1)NC(=O)[C@H](NC(=O)[C@@H](CCCCN)NC(=O)[C@@H](CC(C)C)NC(=O)[C@@H](Cc1ccccc1)NC(=O)[C@@H](CO)NC(=O)[C@@H](CCCCN)NC(=O)[C@@H](Cc1c[nH]c2ccccc12)NC(=O)[C@@H](CCCCN)NC(C)=O)[C@H](C)O)C(C)C)[C@H](C)O)C(C)C)[C@H](C)O)C(=O)N[C@H](CO)C(=O)N[C@H](CO)C(N)=O	Acinetobacter baumannii		759, Mueller-Hinton broth	24 h, 37 °C	0.7 µM
CCCCCCCCCC1CC2CCCC3CC(CCCCCCCCC)NC(=N1)N23 (stereo not drawn)	Aspergillus fumigatus	fungal growth	ATCC 204305		23.2 µM
COc1ccc2c(c1CC=C(C)C)O[C@H]1c3cc4c(cc3OC[C@@]21O)OC(C)(C)C=C4	Shigella flexneri		DMST 4423		inactive
